# Assay results of several laboratories.
# Protocols differ between the studies behind these lines. Numbers after ± are the reported error.
Structure (SMILES),target or system,assay,test system,setting,how to read,measurement,result
NCCCC[C@@H]1NC(=O)[C@@H](Cc2c[nH]c3ccccc23)NC(=O)[C@H](c2ccccc2)NC(=O)[C@@H]2C[C@@H](OC(=O)NCCN)CN2C(=O)[C@H](Cc2ccccc2)NC(=O)[C@H](Cc2ccc(OCc3ccccc3)cc2)NC1=O,,,healthy volunteers,"subcutaneous, 1950 µg twice daily, day 5, 24.00 h",,QTcI change from baseline,7.9 ms
CCN1[C@@H](C(=O)NC23CCC(C(=O)O)(CC2)CC3)[C@H](c2cccc(Cl)c2F)[C@]2(C(=O)Nc3cc(Cl)ccc32)C12CCCCC2,,,patients with advanced solid tumours,"oral, 150 mg",,Ageusia incidence,12.5%
COc1ccnc(C(=O)N[C@H]2COC(=O)[C@H](Cc3ccccc3)[C@@H](OC(=O)C(C)C)[C@H](C)OC2=O)c1OCOC(=O)C(C)C,,,rat,"oral, 2 years, thyroid effects",,LOAEL,101 mg/kg bw/day
CC(C)[C@@H]1NC(=O)CNC(=O)[C@H](CC(N)=O)NC(=O)[C@H](CCCNC(=N)N)NC(=O)[C@H](Cc2ccc(O)cc2)NC(=O)[C@H](C(C)C)NC(=O)[C@@H](NC(=O)[C@@H](NC(=O)[C@H](CC(N)=O)NC(=O)[C@H](Cc2c[nH]c3ccccc23)NC(=O)[C@H](C)NC(=O)[C@H](Cc2ccccc2)NC(=O)CN)C(C)C)CSSC[C@@H](C(=O)N[C@@H](Cc2cnc[nH]2)C(=O)N[C@@H](CCCNC(=N)N)C(=O)N[C@@H](CCCNC(=N)N)C(=O)N[C@@H](C)C(=O)N[C@@H](CC(N)=O)C(N)=O)NC(=O)[C@H](C(C)C)NC(=O)[C@H](CCCNC(=N)N)NC1=O,,,"ICR mouse, blood","intramammary, 10 mg/kg, day 5, 3 d dosing",,eosinophils,2.18 ± 0.05%
Cn1cncc1-c1c(F)cncc1NC(=O)c1c(N)nn2cc(F)cnc12,,,human patients,"oral, 270 mg once daily",,grade ≥3 creatinine increase incidence,0%
COc1cc(C2C3=C(COC3=O)N(CCO)c3cc4c(cc32)CCC4)cc(OC)c1OC (stereo not drawn),,,female C57BL/6 mice,"intraperitoneal, 200 mg/kg, 48 h, single dose, mean",,body weight,22 g
CC(=O)c1c(C)c2cnc(Nc3ccc(C4CCN(CCS(C)(=O)=O)CC4)cn3)nc2n(C2CCCC2)c1=O,,,HR+/HER2- advanced breast cancer patients,"oral, dose not given, all grades,, sample A patients",,patients with neutropenia,97.5%
C[C@]1(O)C[C@@](N)(c2ccc(-c3nc4n(c3-c3ccccc3)COc3ccncc3-4)cc2)C1,,,"human, advanced or metastatic solid tumours","intermittent, dose escalation total, any grade",,patients with Hyperphosphatemia TEAE,14.3%
C[C@@H]1NC(=O)[C@H](CCCCNC(=O)CO/N=C/C(=O)NCCCC[C@@H]2NC(=O)[C@@H](Cc3ccccc3)NC(=O)[C@H](CC(=O)O)NC(=O)CNC(=O)[C@H](CCCNC(=N)N)NC2=O)NC(=O)CNC(=O)[C@@H]2CCCN2C(=O)[C@H](CCCCNC(=O)CO/N=C/C(=O)NCCCC[C@@H]2NC(=O)[C@@H](Cc3ccccc3)NC(=O)[C@H](CC(=O)O)NC(=O)CNC(=O)[C@H](CCCNC(=N)N)NC2=O)NC(=O)[C@H](CCCCNC(=O)CN2CCCNCCNCCCNCC2)NC(=O)[C@H](CCCCNC(=O)CO/N=C/C(=O)NCCCC[C@@H]2NC(=O)[C@@H](Cc3ccccc3)NC(=O)[C@H](CC(=O)O)NC(=O)CNC(=O)[C@H](CCCNC(=N)N)NC2=O)NC(=O)CNC(=O)[C@@H]2CCCN2C(=O)[C@H](CCCCNC(=O)CO/N=C/C(=O)NCCCC[C@@H]2NC(=O)[C@@H](Cc3ccccc3)NC(=O)[C@H](CC(=O)O)NC(=O)CNC(=O)[C@H](CCCNC(=N)N)NC2=O)NC1=O [copper-64 labelled],,,"normal mice, stomach","intravenous, 0.74 MBq, 3 h post-injection",,tissue uptake,2.79 ± 0.17 %ID/g
CC(C)(c1ccccc1)c1cc(-n2nc3ccccc3n2)c(O)c(C(C)(C)c2ccccc2)c1,,,human aged 6-11 years,"concentration not given, spray sunscreen, 95th percentile",,daily dermal exposure dose,68 ng/kg/day
COc1ncccc1-c1cnn2ccc(N3CCN(C(=O)OC(C)C)CC3)nc12,,,"mouse nerve ligation model, brain","oral, 3 mg/kg, 120 min after last dose, repeat dosing day 4",,drug concentration,1900 nM
O=C(Nc1ccccc1)C1CCN(C(=O)Oc2cccnc2)CC1,,adverse event reporting,healthy women,"oral, 100 mg, 9 days",,subjects with blurred vision,15.4%
CC(C)(O)c1cc(Nc2cc(Oc3cn(C4CC4)nc3C3CCOCC3)ccn2)ccn1,,Cough,"advanced cancer patients, dose escalation","oral, dose not given, 2 weeks on/off, all causality grade ≥3",,treatment-emergent adverse events,0%
CC(C)[C@@H]1CC[C@@H](C)C[C@@H]1O,,acute oral toxicity OECD,"Swiss albino mice, serum","oral, 300 mg/kg",,lactate dehydrogenase,70.2 ± 5.82 mg/dL
CNC(=O)c1cc(Oc2ccc(NC(=O)Nc3cc(C(C)(C)C)nn3-c3ccc4ncccc4c3)c(F)c2)ccn1,,"intraocular pressure increased, NCI CTC v3.0",human patients,"oral, 150 mg twice daily, tablet, dose at onset",,related SAE,3%
Cc1ccc(-c2cccc(CN3CCCC(NC(=O)c4c(C)noc4C)C3)c2)cc1Cl (stereo not drawn),Vero-E6,CellTiter-Glo ATP,,"concentration not given, 72 h, first round 5-point","reference: DMSO 0%, hyamine -100%, more negative, more toxic",cytotoxicity efficacy,0%
COc1ccc(C[C@@H]2NC(=O)[C@H]([C@@H](C)O)NC(=O)[C@@H]3[C@@H]4CCN3C(=O)[C@@H]3Cc5cn(c6ccc(F)cc56)CCCCCCN(Cc5ccc(cc5)CCNC(=O)[C@]5(C)CCCN5C2=O)C(=O)CCC(=O)N[C@@H](C)C(=O)N[C@H](CNC(=O)CCCCC[N+](C)(C)C)C(=O)N[C@@H](Cc2cccc(c2)CNC(=O)CO4)C(=O)N3)cc1,,,"human, plasma","oral, 40 mg, high-fat breakfast 30 min before, together with: sodium caprate 720 mg",,t1/2,58.9 h
CCCCCCCCCCCCCCCC(=O)N[C@@H](CCC(=O)NCCCC[C@H](NC(=O)[C@H](CC(=O)O)NC(=O)[C@H](CO)NC(=O)[C@@H](NC(=O)[C@H](Cc1ccccc1)NC(=O)[C@@H](NC(=O)CNC(=O)[C@H](CCC(N)=O)NC(=O)[C@H](CO)NC(=O)[C@@H](N)Cc1c[nH]cn1)[C@@H](C)O)[C@@H](C)O)C(=O)N[C@@H](CO)C(=O)N[C@@H](CCC(=O)O)C(=O)N[C@@H](Cc1ccc(O)cc1)C(=O)N[C@@H](CC(C)C)C(=O)N[C@@H](CC(=O)O)C(=O)N[C@@H](CO)C(=O)N[C@@H](CCC(=O)O)C(=O)N[C@@H](CCCNC(=N)N)C(=O)N[C@@H](C)C(=O)N[C@@H](CCCNC(=N)N)C(=O)N[C@@H](CC(=O)O)C(=O)N[C@@H](Cc1ccccc1)C(=O)N[C@H](C(=O)N[C@@H](C)C(=O)N[C@@H](Cc1c[nH]c2ccccc12)C(=O)N[C@@H](CC(C)C)C(=O)N[C@@H](CCC(=O)O)C(=O)N[C@@H](C)C(=O)NCC(=O)NCC(=O)O)C(C)C)C(=O)O,,,"human, CrCl ≥30 to <45 mL/min","sc, 100 µg single dose",,injection site erythema,0%
COc1cc2c(Oc3ccc4[nH]c(C)cc4c3F)ccnc2cc1OCC1(N)CC1,,,paediatric recurrent refractory sarcoma,10 mg,,grade 3 Tinnitus,0%
CCc1ccc(CC/C=C/c2ccc3c(c2)C(=O)CC3)cc1,,,"Sprague-Dawley rat, female","oral, 120 mg/kg/day, 14 days",,CK serum activity,374 U/L
CCN(CC)Cc1cc(Nc2ccnc3cc(Cl)ccc23)ccc1O,Vero-E6,CellTiter-Glo ATP,,"72 h, second round 5-point","reference: DMSO 0%, hyamine -100%, more negative, more toxic",maximum response,-11.2%
C[C@]1(CO)Cc2ncn(-c3ccc(C#N)c(Cl)c3)c2C(=O)O1,,,human,20 mg single dose,,subjects with any TEAE,57.1%
Clc1ccc(C(c2ccccc2Cl)C(Cl)Cl)cc1 (stereo not drawn),,,human,dose not given,,time to plasma concentration below 2 mg/L,> 3 months
CC(=O)c1c([O-])cc(C)oc1=O.[Na+],,,"Wistar rat, female, serum","oral, 200 mg/kg, no CYP inhibitor",,AUC(0-inf),4100 ± 244 µg·h/mL
CC[C@H](C)[C@H](NC(=O)[C@H](CC(C)C)NC(=O)[C@H](CCCCN)NC(=O)[C@@H](NC(=O)[C@H](C)NC(=O)[C@H](CCC(=O)O)NC(=O)[C@H](Cc1c[nH]cn1)NC(=O)[C@@H](NC(=O)[C@H](CCCCN)NC(=O)[C@H](CCC(N)=O)NC(=O)[C@H](Cc1ccccc1)NC(=O)[C@@H](N)C(C)C)[C@@H](C)CC)[C@@H](C)CC)C(N)=O,,hemolysis,mouse erythrocytes,,,HC10,256 µM
O=c1nc(NO)ccn1[C@@H]1O[C@H](CO)[C@@H](O)[C@H]1O,,,rat amniotic fluid dialysate,"25 ng/mL, 6 h, room temperature, low concentration, together with: molnupiravir 5 ng/mL",,bench-top stability,98.07 ± 0.86%
CC(C)Nc1ccnc(Nc2cccc(-c3cccnc3)c2)n1,,item: Glucose,"mouse, blood","intraperitoneal, 3 mg/kg",,blood chemistry,210 mg/dL
Clc1cc2c(cc1Cl)Oc1c(ccc(Cl)c1Cl)O2,,ultrafiltration,cow milk whey,200 nM nominal in whole milk,,final permeate concentration,0.75 nM
Clc1ccc(-c2ccccc2)cc1,,,"female Sprague-Dawley rats, serum","inhalation, 23 µg/rat, 2 h after exposure",,sodium,106 ± 30 mmol/L
COc1ccc2nc3cc(Cl)ccc3c(Nc3cc(CN4CCCC4)c(O)c(CN4CCCC4)c3)c2n1,,,"mouse, blood","intraperitoneal, 28 mg/kg",,lymphocyte count,5.49 10⁹/L
O=S(=O)(Nc1ccccc1)c1ccc(NC(=S)Nc2ccccc2)cc1,,item: CREA,"female mouse, blood","oral, 80 mg/kg daily, 14 days",,blood chemistry level,0.18 mg/dL
Cn1cc(-c2nc(N[C@@H]3CCCC[C@@H]3N)c(F)c3c2C(=O)NC3)cn1,,item: Hemoptysis,patients with relapsed or refractory AML,"oral, 100 mg once daily",,hemorrhagic adverse events,14%
C=C(CN(C(=O)c1c(C(F)F)nn(C)c1F)C1CC1)c1ccc(Cl)cc1Cl,,static acute toxicity test,zebrafish (Brachydanio rerio),"0.694 mg a.i./L, 6 h",,mortality,0%
CO[C@H]1C[C@@H]2CC[C@@H](C)[C@@](O)(O2)C(=O)C(=O)N2CCCC[C@H]2C(=O)O[C@H]([C@H](C)C[C@@H]2CC[C@@H](OC(=O)NCCOCCOCCOCCOCCOCCOCCOCCOCCC(=O)N3CCc4cc(Cn5nc(-c6ccc7oc(N)nc7c6)c6c(N)ncnc65)ccc4C3)[C@H](OC)C2)C[C@@H](O)[C@H](C)/C=C(\C)[C@@H](O)[C@@H](OC)C(=O)[C@H](C)C[C@H](C)/C=C/C=C/C=C/1C,,phase 1 dose escalation,advanced solid tumour patients,"intravenous, 10 mg weekly, grade ≥3",,any SAE incidence,25%
CC1(C)C(/C=C(\Cl)C(F)(F)F)C1C(=O)OC(C#N)c1cccc(Oc2ccccc2)c1 (stereo not drawn),,item: CYP2C8,"human, age 5 years",,,enzyme contribution to clearance,0.09%
CC(C)C[C@H](NC(=O)[C@H](CCCCN)NC(=O)OCC1c2ccccc2-c2ccccc21)C(=O)N[C@H](C(=O)N[C@@H](Cc1ccccc1)C(=O)N[C@@H](Cc1ccccc1)C(=O)N[C@@H](CCCCN)C(=O)NCC(=O)N[C@@H](Cc1ccccc1)C(=O)N[C@@H](C)C(=O)N[C@@H](Cc1c[nH]c2ccccc12)C(=O)N[C@@H](CC(N)=O)C(=O)N[C@H](C(=O)N[C@H]1CSSC[C@@H](C(=O)N[C@@H](Cc2c[nH]cn2)C(=O)N[C@@H](CCCNC(=N)N)C(=O)N[C@@H](CCCNC(=N)N)C(=O)N[C@@H](C)C(=O)N[C@@H](CC(N)=O)C(N)=O)NC(=O)[C@H](C(C)C)NC(=O)[C@H](CCCNC(=N)N)NC(=O)[C@H](C(C)C)NC(=O)CNC(=O)[C@H](CC(N)=O)NC(=O)[C@H](CCCNC(=N)N)NC(=O)[C@H](Cc2ccc(O)cc2)NC(=O)[C@H](C(C)C)NC1=O)C(C)C)C(C)C,,,"ICR mice, serum","intraperitoneal, 10 mg/kg, day 5",reference: AST over ALT,AST/ALT ratio,0.6 ± 0.03

# Some of these lines once more:
Structure (SMILES),target or system,assay,test system,setting,how to read,measurement,result
C[C@@H]1NC(=O)[C@H](CCCCNC(=O)CO/N=C/C(=O)NCCCC[C@@H]2NC(=O)[C@@H](Cc3ccccc3)NC(=O)[C@H](CC(=O)O)NC(=O)CNC(=O)[C@H](CCCNC(=N)N)NC2=O)NC(=O)CNC(=O)[C@@H]2CCCN2C(=O)[C@H](CCCCNC(=O)CO/N=C/C(=O)NCCCC[C@@H]2NC(=O)[C@@H](Cc3ccccc3)NC(=O)[C@H](CC(=O)O)NC(=O)CNC(=O)[C@H](CCCNC(=N)N)NC2=O)NC(=O)[C@H](CCCCNC(=O)CN2CCCNCCNCCCNCC2)NC(=O)[C@H](CCCCNC(=O)CO/N=C/C(=O)NCCCC[C@@H]2NC(=O)[C@@H](Cc3ccccc3)NC(=O)[C@H](CC(=O)O)NC(=O)CNC(=O)[C@H](CCCNC(=N)N)NC2=O)NC(=O)CNC(=O)[C@@H]2CCCN2C(=O)[C@H](CCCCNC(=O)CO/N=C/C(=O)NCCCC[C@@H]2NC(=O)[C@@H](Cc3ccccc3)NC(=O)[C@H](CC(=O)O)NC(=O)CNC(=O)[C@H](CCCNC(=N)N)NC2=O)NC1=O [copper-64 labelled],,,"normal mice, stomach","intravenous, 0.74 MBq, 3 h post-injection",,tissue uptake,2.79 ± 0.17 %ID/g
COc1cc(C2C3=C(COC3=O)N(CCO)c3cc4c(cc32)CCC4)cc(OC)c1OC (stereo not drawn),,,female C57BL/6 mice,"intraperitoneal, 200 mg/kg, 48 h, single dose, mean",,body weight,22 g
